# Measured values gathered from unrelated publications.
# Protocols differ between the studies behind these lines. Numbers after ± are the reported error.
SMILES,test,system,conditions,tissue uptake
CCCC[C@H](NC(=O)CN1CCC(NC(=O)CN2CCN(CC(=O)O)CCN(CC(=O)O)CCN(CC(=O)O)CC2)CC1)C(=O)N[C@H]1CC(=O)NCCCC[C@@H](C(N)=O)NC(=O)[C@H](Cc2c[nH]c3ccccc23)NC(=O)[C@H](CCCNC(=N)N)NC(=O)[C@@H](Cc2ccccc2)NC(=O)[C@H](Cc2c[nH]cn2)NC1=O [gallium-68 labelled],,"C57BL/6J mice male B16-F10 tumour, lungs","2 h post injection, unblocked",0.4 ± 0.1 %ID/g
N=C(N)NCCC[C@H](NC(=O)CON=C[C@H](F)[C@@H](O)[C@H](O)[C@H](O)CO)C(=O)NCC(=O)N[C@@H](CC(=O)O)C(=O)O [fluorine-18 labelled],,"nude mice U-87 MG tumour, stomach","intravenous, 2 h",0.3 ± 0.32 %ID/g
CCCC[C@@H]1NC(=O)[C@@H](NC(=O)[C@H](CCC(=O)O)NC(=O)CNC(=O)CN2CCN(CC(=O)O)CCN(CC(=O)O)CCN(CC(=O)O)CC2)CCCCNC(=O)C[C@@H](C(N)=O)NC(=O)[C@H](C(C)C)NC(=O)[C@@H]2CCCN2C(=O)[C@H](CCCNC(=N)N)NC(=O)CNC(=O)[C@H](Cc2c[nH]c3ccccc23)NC(=O)[C@H](CCCNC(=N)N)NC(=O)[C@@H](Cc2ccccc2)NC(=O)[C@H](Cc2c[nH]cn2)NC(=O)[C@H](CCC(=O)O)NC1=O [gallium-67 labelled],,"C57 mice with B16/F1 melanoma, kidneys","intravenous, 0.037 MBq, 4 h",22.6 ± 4.03 %ID/g
CCCC[C@H](NC(=O)CNC(=O)CNC(=O)CN1CCN(CC(=O)O)CCN(CC(=O)O)CCN(CC(=O)O)CC1)C(=O)N[C@H]1CC(=O)NCCCC[C@@H](C(N)=O)NC(=O)[C@H](Cc2c[nH]c3ccccc23)NC(=O)[C@H](CCCNC(=N)N)NC(=O)[C@@H](Cc2ccccc2)NC(=O)[C@H](Cc2c[nH]cn2)NC1=O [gallium-67 labelled],,"female C57 mice, B16/F1 melanoma, muscle","intravenous, 0.037 MBq, 0.5 h",0.75 ± 0.2 %ID/g
O=C([O-])c1cccc(CN(CCN(Cc2cn(Cc3ccccc3)nn2)Cc2cccc(C(=O)[O-])n2)Cc2cn(Cc3ccccc3)nn2)n1.[64Cu+2],,"healthy athymic nude mice, stomach","intravenous, 24 h",2.13 %ID/g
O=C([O-])CN1CCN(CC(=O)[O-])CCN(CC(=O)NCCc2ccc3c(c2)C2C=CCC2C(c2cc4c(cc2Br)OCO4)N3)CCN(CC(=O)[O-])CC1.[111In+3] (centres unmarked),SPECT/CT imaging,"mice with Hec50 tumour xenograft, liver",1 h,14.5 % ID
O=C(NCC1OC2CCC=CCCC2O1)c1ccc([18F])nc1 (centres unmarked),,"female BALB/c nude mice, kidneys","intravenous, 10 min",14.5 ± 3.2 %ID/g
CN1C(=O)[C@@H](Cc2ccc(O)c(I)c2)NC(=O)CNC(=O)[C@H](Cc2ccc3ccccc3c2)NC(=O)[C@H](CCCNC(=N)N)NC(=O)[C@H]1CCCNC(=O)c1ccc(CNC(=O)CN2CCN(CC(=O)O)CCN(CC(=O)O)CCN(CC(=O)O)CC2)cc1 [lutetium-177 labelled],measured: 177Lu radioactivity,"female CB-17 SCID mice, Daudi xenograft, heart","intravenous, 0.16 nmol per mouse, 96 h",0.1 ± 0.01 %ID/g
CCCC[C@H](NC(=O)CNC(=O)CNC(=O)CN1CCN(CC(=O)O)CCN(CC(=O)O)CC1)C(=O)N[C@H]1CC(=O)NCCCC[C@@H](C(N)=O)NC(=O)[C@H](Cc2c[nH]c3ccccc23)NC(=O)[C@H](CCCNC(=N)N)NC(=O)[C@@H](Cc2ccccc2)NC(=O)[C@H](Cc2c[nH]cn2)NC1=O [gallium-67 labelled],,"female C57 mice, B16/F1 melanoma, pancreas","intravenous, 0.037 MBq, 24 h",0.88 ± 0.31 %ID/g
CC(C)[C@H](NC(=O)[C@@H]1CCCN1C(=O)[C@H](CCCNC(=N)N)NC(=O)[C@H](CS)NC(=O)[C@H](Cc1c[nH]c2ccccc12)NC(=O)[C@H](CCCNC(=N)N)NC(=O)[C@@H](Cc1ccccc1)NC(=O)[C@H](Cc1c[nH]cn1)NC(=O)[C@H](CCC(=O)O)NC(=O)[C@H](CS)NC(=O)[C@H](CS)NC(=O)[C@@H]1CC(=O)N[C@@H](CCCNC(=N)N)C(=O)NCC(=O)N[C@@H](CC(=O)O)C(=O)N[C@H](Cc2ccc(O)cc2)C(=O)N1)C(N)=O [technetium-99m labelled],,"C57 mice B16/F1 melanoma female, kidneys","iv, 0.037 MBq, 4 h",16 ± 2.47 %ID/g
O=C([O-])CN1CCN(CC(=O)[O-])CCN(CC(=O)NC[C@H]2CC[C@H](C(=O)N[C@H](Cc3cnc4ccccc4c3)C(=O)NCCCC[C@H](NC(=O)N[C@@H](CCC(=O)O)C(=O)O)C(=O)O)CC2)CCN(CC(=O)[O-])CC1.[64Cu+2],ex vivo gamma counting,"22Rv1 tumour-bearing mice, kidney","intravenous, 0.74 MBq, 1 h",147 ± 33 %ID/g

# Repeated from above:
SMILES,test,system,conditions,tissue uptake
O=C(NCC1OC2CCC=CCCC2O1)c1ccc([18F])nc1 (centres unmarked),,"female BALB/c nude mice, kidneys","intravenous, 10 min",14.5 ± 3.2 %ID/g
